Measurements collected from several papers.
Numbered parts are unrelated; each lists some results of a single study.

Block 1 — method: protein-binding microarray; form: double-stranded DNA, one strand shown; medium: in vitro; concentration: 940 nM top; notes: 60-bp whole probe; with: salmon DNA 0.4 mg/ml; reference: random background probes; direction: higher = stronger binding; constant ends, left off below: GCCTAGCAC … GTCTTGATTCGCTTGACGCTGCTG
Target: Interferon regulatory factor 5, full length, phosphomimetic (IRF5, Homo sapiens, UniProt Q13568-2, residues 1-514, S451D/S453D/S456D/S462D)
| Oligonucleotide | fitted relative affinity [z-score] |
| --- | --- |
| TTAGAAGTGAGTCTCGATTAGTGCTAG | 2.84 |
| TCAATCATTGTTTTCAGACTGTGCTAG | 0.193 |
| GGCGGTATCGGACTGGGGACGTGCTAG | 2.73 |
| GACAAACTGAGTTTCGAGACGTGCTAG | 3.59 |
| TTAGGACTTGGTCTCGGTTAGTGCTAG | 3.11 |
| TTAGGTCTCCGTTTCGGTTAGTGCTAG | 3.52 |
| TTAGGACTGGGGTGTCGGTTAGTGCTA | -0.0415 |

Block 2 — method: protein-binding microarray; form: hairpin DNA; medium: in vitro; concentration: not given; reference: not given; direction: higher = stronger binding; constant ends, left off below: GCAGGCCC … GGGCCTGCACACTCTTTCCCTACACGAC
Target: Transcription factor SOX-2, HMG box (SOX2, Homo sapiens, UniProt P48431, residues 37-118)
Chain of UniProt P48431 (37-118, looked up): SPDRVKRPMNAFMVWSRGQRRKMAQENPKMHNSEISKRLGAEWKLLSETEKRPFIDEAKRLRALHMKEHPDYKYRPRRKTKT
Notes: whole hairpin DNA, median over replicate spots
| Oligonucleotide | median fluorescence [a.u.] |
| --- | --- |
| CGAATGGGCCTCCTGGCCCATTCG | 2500 |
| ACGATGGGCCTCCTGGCCCATCGT (5mC at 10) | 2420 |
| CAAATGGGCCTCCTGGCCCATTTG | 2520 |
| TCAATGGGCCTCCTGGCCCATTGA | 3110 |
| ACAATCGGCCTCCTGGCCGATTGT (5mC at 14 26) | 2920 |

Block 3 — method: protein binding microarray; form: double-stranded DNA, one strand shown; medium: in vitro; concentration: not given; reference: not given; direction: higher = stronger binding
Target: Histone acetyltransferase KAT6A, both winged helices, GST fusion (KAT6A, Homo sapiens, UniProt Q92794, residues 1-181)
Notes: 8-mer, flanks averaged, mean of 2 arrays, mostly near background
Target sequence (chain): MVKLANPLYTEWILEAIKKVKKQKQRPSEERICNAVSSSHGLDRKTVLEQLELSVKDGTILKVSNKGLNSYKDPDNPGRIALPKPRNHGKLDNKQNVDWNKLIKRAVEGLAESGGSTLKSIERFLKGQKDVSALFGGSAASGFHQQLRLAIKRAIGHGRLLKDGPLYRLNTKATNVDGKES
| Oligonucleotide | E-score |
| --- | --- |
| ATCAACCC | 0.0196 |
| AAAGTATC | 0.0909 |
| GTCATGTA | -0.00101 |
| CACTTGGG | -0.16 |
| CTGAACAA | 0.076 |
| GCGGGATA | 0.315 |

Further values, each from its own experiment
| Molecule | target | assay | test system | conditions | scale | measurement | value |
| --- | --- | --- | --- | --- | --- | --- | --- |
| PhoQ, residues 284 288 289 292 302 303 QWGLFV | PhoP, residues 12 14 15 18 19 SEGLL (Escherichia coli, UniProt P23836) | Sort-seq, refers to: YFP reporter | E. coli | PhoQ-PhoP variant library, with: 10 µM Mg2+ | reference: high Mg2+ state, higher = stronger signaling | fold induction | 13.8 |

Excerpt of the above (block 1):
| Oligonucleotide | fitted relative affinity [z-score] |
| --- | --- |
| TTAGGTCTCCGTTTCGGTTAGTGCTAG | 3.52 |
| TTAGAAGTGAGTCTCGATTAGTGCTAG | 2.84 |
